Experimental data pooled from the literature.
Every numbered part comes from another study and shows a few of its results, in no order.

Block 1 — method: RNA Bind-n-Seq; molecule type: RNA; sample: in vitro; tested at: 200 nM; setting: whole 134-nt RNA, ends assumed; added: 150 mM KCl; relative to: input library; reading: higher = stronger binding
Target: Ras GTPase-activating protein-binding protein 1, full length (G3BP1, Homo sapiens, UniProt Q13283)
Chain of UniProt Q13283 (whole entry, looked up): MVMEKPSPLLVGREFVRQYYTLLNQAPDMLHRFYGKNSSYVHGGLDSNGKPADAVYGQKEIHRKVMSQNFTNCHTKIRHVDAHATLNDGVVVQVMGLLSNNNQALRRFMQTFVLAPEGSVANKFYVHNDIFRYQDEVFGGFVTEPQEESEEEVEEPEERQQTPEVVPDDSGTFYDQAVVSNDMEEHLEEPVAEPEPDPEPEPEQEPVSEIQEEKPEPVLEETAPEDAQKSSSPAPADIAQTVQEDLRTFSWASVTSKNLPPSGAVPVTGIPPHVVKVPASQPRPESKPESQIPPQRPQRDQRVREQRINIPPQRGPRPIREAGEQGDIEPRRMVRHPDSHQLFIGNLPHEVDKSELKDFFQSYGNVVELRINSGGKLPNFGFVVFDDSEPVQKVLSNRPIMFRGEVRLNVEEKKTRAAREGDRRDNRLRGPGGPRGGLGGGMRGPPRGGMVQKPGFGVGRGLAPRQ
| Sequence | log2 enrichment |
| --- | --- |
| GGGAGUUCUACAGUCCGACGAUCGUCCUGUGCUACACAUCGUAUGUACCGAAUCGGCCCCCCGGGCCCCCCGGCCCCCCGGGAAAGUAUUAUGUUACGCCGUUCGGAUCUGCAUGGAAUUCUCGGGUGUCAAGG | -0.517 |
| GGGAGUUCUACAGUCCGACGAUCCAAGUCCUGUGCUACACAUCGUAUGUACCGAAUCGGGGAAAGGGGAAAGGAAAGGGAAAGUAUUAUGUUACGCCGUUCGGAUCUGCACUUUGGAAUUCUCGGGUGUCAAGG | -0.238 |
| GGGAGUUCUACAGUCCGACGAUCACCAUGCAGGUGGGCAUCUUUGGGGAGUGGGGCAAGGGGGGGAUAGGGAGGGGGGUAACACUUUGGGAACAGGUGGUCCCAGGUCGUUUCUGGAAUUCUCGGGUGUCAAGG | 1.49 |
| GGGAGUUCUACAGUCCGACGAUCAAGUCCUGUGCUACACAUCGUAUGUACCGAAUCGGCCCCCGGCCCCCGGGCCCCCGGAAAGUAUUAUGUUACGCCGUUCGGAUCUGCACUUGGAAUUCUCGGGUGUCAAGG | -0.447 |
| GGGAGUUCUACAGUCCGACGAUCUCCUGUGCUACACAUCGUAUGUACCGAAUCGGGUUUUUGGGAAAAAAAGGGAAAAAGGGAAAGUAUUAUGUUACGCCGUUCGGAUCUGCAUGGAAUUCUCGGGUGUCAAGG | -0.507 |
| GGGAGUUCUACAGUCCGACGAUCUGGGAGUUGGAUUUUGUUUAUUUUUUUAGCUCAUUUCCAGGGGUGGGAAUUUUUUUUUAAUAUGUGUCAUGAAUAAAGUUGUUUUUGAAAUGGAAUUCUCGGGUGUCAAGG | -1.06 |
| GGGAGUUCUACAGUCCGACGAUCGCAGGAAGUAAAAACAAAUGGACAUGCUUCGGAUAGUGGCAGGGGUGGGGGUUGCUAAGGAAAGGGUGGGAUGGGAGUGGGUAAAGAGUUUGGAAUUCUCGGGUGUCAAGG | 1.18 |
| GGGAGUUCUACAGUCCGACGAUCCACAGACAACACGAACCCACACAGACACAGAGGGAAGGGGUUGGGAUGGGGACAGGGUGCACAGCAGGGCGGGGUAGGACCCCAGCCCCUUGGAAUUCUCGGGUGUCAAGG | 2.16 |
| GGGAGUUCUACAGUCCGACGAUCUAGCUAAACUAAUGUCAACUUAUUUCCUUUUUUCCUUUAGCCACCAUCAAAGAACAGACGAGAGAGAACAGAACUGAAGCCUGAUUUCUUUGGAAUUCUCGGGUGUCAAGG | -0.96 |

Block 2 — method: RNA Bind-n-Seq; molecule type: RNA; sample: in vitro; tested at: 365 nM; relative to: no-protein control; reading: higher = stronger binding
Target: RNA binding protein fox-1 homolog 2, RRM domain, GST-SBP tag (RBFOX2, Homo sapiens, UniProt O43251-10, residues 100-194)
Setting: natural RNA segment, single round, ends assumed
Construct (chain): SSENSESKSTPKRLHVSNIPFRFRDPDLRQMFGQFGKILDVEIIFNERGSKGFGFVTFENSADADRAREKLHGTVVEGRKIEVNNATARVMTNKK
| Sequence | RBNS enrichment (R) |
| --- | --- |
| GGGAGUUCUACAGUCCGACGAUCACAAGCAGGCUUGUUUCCACCAAUAGUGCCAAAAAGAUAUUGCCUAAUGUGCACCUGUGAGGUGUAACCCCCCGCUUUGGAGACGAGAUGGCUCUUGUUCAGUCAAGACCUGGAAUUCUCGGGUGCCAA | 0.197 |
| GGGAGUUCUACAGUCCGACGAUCCCCCGUGGAGCCUCAGUGCCCGUUUGGCCUGCUGCUCUCGCUGACAAUAAAGAGCCCUUGCGUUGCACUGAAGCCUGUGUUUGGUAUGAGGGUGCCAUCGGGAAGGGCGCUGGAAUUCUCGGGUGCCAA | 1.46 |
| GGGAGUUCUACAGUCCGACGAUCGUUGGAUAUUCAAUAUUAUGAAUAUUAAAAAGGGGGCAAUAAAAGGGUAUGUAAAAUAUGUAUGAAGAAAAGGUGUAUAAAAAUUUGCCCUUAUGCACGGAACUGUUUCUUGGAAUUCUCGGGUGCCAA | 2.27 |
| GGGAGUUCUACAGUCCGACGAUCCUCCCCACCACCCUCCGCCAUCAGCCUGCCUGGGCCAGCCUGCCUCCUGGCCUCAGGAUCUCCCUGGGGCAGGAAGUGGGUGGACUUGGAGGAGGAACGGCAAGGGCCGGUGGAAUUCUCGGGUGCCAA | 0.3 |
| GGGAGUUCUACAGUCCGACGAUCACUUUUGUACUAAGUAAGUGCUCCCAAGUCUUUUACUUGCUCUUCACAGCAACCCUAAUAGGUAUCUCCAUUUUACAUAGGUAAAAACUGAGGCUACAAACAAUCUAUGGUGGAAUUCUCGGGUGCCAA | 0.673 |
| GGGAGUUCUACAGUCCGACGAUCCUACUGUGUGUGUGAGAUCCUAUAUACCAGCAUGUACCAAGAAUGUGUGUGUAGUUUUAAUUAUGCUGCAAUGUAUAAUCUGGUGUGUUAUUUAAACAGCACUAGUACUGUGGAAUUCUCGGGUGCCAA | 3.78 |
| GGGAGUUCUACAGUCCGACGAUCAGAAAAAACCCGUUUUCAAUUCUAAUGAAACAGCAACAACAUUUUUUUUAAUUAAAAAAAAAAUCAUGUUCUUUGUUUUUCUAAUAAAAUGUUAGGUUGUUUGGUGAGGUUGGAAUUCUCGGGUGCCAA | 0.673 |
| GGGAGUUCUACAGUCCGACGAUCGAAUUUUUUAUUUUUUGGUAUUGGCCAUAAGCAACAAUUUUCAGAUUUGCACAAAAAGAUACCUUAAAAUUUGAAACAUUGCUUUUAAAACUACUUAGCACUUCAGGGCAUGGAAUUCUCGGGUGCCAA | 1.47 |

Block 3 — method: universal PBM; molecule type: double-stranded DNA, one strand shown; sample: in vitro; tested at: 600 nM; reading: higher = stronger binding
Target: Sal-like protein 4, full length isoform A (SALL4, Homo sapiens, UniProt Q9UJQ4, residues 1-1053)
Chain of UniProt Q9UJQ4 (whole entry, looked up): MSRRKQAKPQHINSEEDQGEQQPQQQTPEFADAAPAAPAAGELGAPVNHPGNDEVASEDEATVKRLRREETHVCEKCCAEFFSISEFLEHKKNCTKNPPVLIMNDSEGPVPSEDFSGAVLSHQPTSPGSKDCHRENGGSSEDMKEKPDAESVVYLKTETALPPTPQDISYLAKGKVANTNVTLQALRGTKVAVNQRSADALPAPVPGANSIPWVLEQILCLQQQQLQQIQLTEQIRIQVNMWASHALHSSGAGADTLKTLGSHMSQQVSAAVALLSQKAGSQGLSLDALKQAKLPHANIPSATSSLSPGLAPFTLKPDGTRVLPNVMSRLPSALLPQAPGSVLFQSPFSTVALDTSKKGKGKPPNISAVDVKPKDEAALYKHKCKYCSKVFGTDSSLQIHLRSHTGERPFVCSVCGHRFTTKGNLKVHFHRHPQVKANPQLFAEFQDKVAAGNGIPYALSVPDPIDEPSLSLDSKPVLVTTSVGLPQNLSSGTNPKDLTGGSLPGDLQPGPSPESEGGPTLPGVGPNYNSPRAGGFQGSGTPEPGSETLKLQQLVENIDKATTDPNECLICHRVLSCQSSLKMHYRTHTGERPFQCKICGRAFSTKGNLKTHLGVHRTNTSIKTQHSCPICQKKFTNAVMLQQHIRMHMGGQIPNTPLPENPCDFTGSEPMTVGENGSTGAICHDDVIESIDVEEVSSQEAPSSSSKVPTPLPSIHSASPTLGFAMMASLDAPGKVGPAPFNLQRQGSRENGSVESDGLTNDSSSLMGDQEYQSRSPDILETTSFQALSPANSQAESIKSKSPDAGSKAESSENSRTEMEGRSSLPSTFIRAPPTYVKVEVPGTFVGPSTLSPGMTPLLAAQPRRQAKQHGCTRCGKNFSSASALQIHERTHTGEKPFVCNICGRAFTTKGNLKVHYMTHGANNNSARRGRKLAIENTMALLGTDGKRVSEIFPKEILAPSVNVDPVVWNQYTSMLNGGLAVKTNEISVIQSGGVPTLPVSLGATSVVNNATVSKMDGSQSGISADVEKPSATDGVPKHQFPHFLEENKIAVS
Setting: 8-mer, flanks averaged, mean of replicates
| Sequence | E-score |
| --- | --- |
| ATACTAGG | 0.147 |
| AAGCACTA | 0.0943 |
| ATCGACCG | -0.121 |
| AAAAGCTT | 0.139 |
| AAAGGGGG | -0.116 |
| ATCTGGCG | -0.0757 |
| TTGTTAAA | 0.293 |
| AGTGTGAT | -0.0342 |
| AGATGTTA | 0.164 |
| AACGTGTG | 0.0761 |
| ATCCCAGC | -0.195 |
| AAGTCCAG | 0.0407 |
| CAAGTCCA | 0.0149 |
| GCCTGTCA | -0.201 |
| ACCCGAGG | -0.231 |
| AAACGTAG | 0.0208 |
| GGGCGCAC | -0.313 |
| ATAATTCG | 0.321 |
| AGGGCTTG | -0.126 |
| TCGCTACA | -0.15 |
| TCTCATCA | 0.148 |
| GTCATCGA | 0.047 |
| TGCGCCAA | 0.00929 |
| ATTTCGCC | 0.0305 |
| GCATGTGA | -0.0518 |

Block 4 — method: protein-binding microarray; molecule type: double-stranded DNA, one strand shown; sample: in vitro; tested at: not given; reading: higher = stronger binding
Target: Transcriptional repressor CTCF (CTCF, Homo sapiens, UniProt P49711, residues 1-727, full length assumed)
Setting: k-mer, scored over probes, only values ≥0.25
Construct (chain): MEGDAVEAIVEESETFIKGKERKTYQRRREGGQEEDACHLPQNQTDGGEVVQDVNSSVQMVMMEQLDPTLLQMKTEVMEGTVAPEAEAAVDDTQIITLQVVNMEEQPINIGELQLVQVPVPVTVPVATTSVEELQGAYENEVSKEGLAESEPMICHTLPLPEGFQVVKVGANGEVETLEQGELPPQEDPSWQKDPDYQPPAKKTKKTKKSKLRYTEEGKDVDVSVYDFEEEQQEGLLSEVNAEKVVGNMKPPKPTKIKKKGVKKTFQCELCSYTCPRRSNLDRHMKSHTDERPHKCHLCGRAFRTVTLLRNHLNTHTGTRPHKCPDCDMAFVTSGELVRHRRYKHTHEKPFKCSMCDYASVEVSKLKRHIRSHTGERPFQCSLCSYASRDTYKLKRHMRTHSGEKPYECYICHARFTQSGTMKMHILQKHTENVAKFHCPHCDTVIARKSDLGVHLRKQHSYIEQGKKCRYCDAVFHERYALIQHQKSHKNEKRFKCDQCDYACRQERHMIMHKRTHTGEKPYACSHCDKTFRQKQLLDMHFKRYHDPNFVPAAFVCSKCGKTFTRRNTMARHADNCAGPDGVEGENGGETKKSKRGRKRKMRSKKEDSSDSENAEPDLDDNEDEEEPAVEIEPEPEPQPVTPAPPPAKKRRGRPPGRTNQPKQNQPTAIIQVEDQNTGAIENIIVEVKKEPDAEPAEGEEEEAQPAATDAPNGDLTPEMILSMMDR
| Sequence | E-score |
| --- | --- |
| TGTATACA | 0.365 |
| GCGGCGCA | 0.336 |
| TTACGTAA | 0.251 |
| ATAAAGTA | 0.293 |
| ATTTACTG | 0.26 |
| ATTACGCG | 0.295 |
| ATAATAAA | 0.282 |
| ACTATATC | 0.265 |
| TATGTTGA | 0.305 |
| ATAATATC | 0.268 |
| TACGGTAA | 0.252 |
| GGCGCACA | 0.394 |
| AAGCGCCA | 0.331 |
| ACAGCGCC | 0.387 |
| ACATATAC | 0.302 |
| GCGCAACA | 0.278 |
| AACCCATA | 0.293 |

Block 5 — method: protein binding microarray; molecule type: double-stranded DNA, one strand shown; sample: in vitro; tested at: not given; relative to: not given; reading: higher = stronger binding
Target: Histone acetyltransferase KAT6A, winged helix 2, GST fusion (KAT6A, Homo sapiens, UniProt Q92794, residues 85-181)
Setting: 8-mer, flanks averaged, mean of 2 arrays, mostly near background
Construct (chain): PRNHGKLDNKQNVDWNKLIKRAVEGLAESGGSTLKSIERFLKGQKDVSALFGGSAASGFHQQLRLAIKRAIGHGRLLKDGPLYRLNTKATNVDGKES
| Sequence | E-score |
| --- | --- |
| CATGTGGG | -0.134 |
| GAGGGTTA | -0.182 |
| AAAAACTG | -0.135 |
| AAGAAAAC | -0.0414 |
| GACCTATA | 0.000125 |
| CAAGAGGA | 0.082 |
| AGTTAGTC | -0.171 |
| GCCGCACC | 0.0857 |
| ACCCGTTA | -0.0236 |
| TGTCCTAA | -0.128 |
| GCTTTCAC | 0.0419 |
| GCCTTGAC | 0.0419 |
| ATTGGTCA | -0.206 |
| ACCTCCTA | -0.0342 |
| ATTCCAAA | -0.0215 |
| ACATAATG | -0.0367 |
| ACACGGGT | -0.156 |
| CGTCAGTA | -0.0957 |
| ACGGGCCC | 0.0498 |
| ATTTTCAC | 0.0102 |
| AGACTAGC | -0.169 |
| GAGGTAGC | -0.0755 |
| CTCGCAGA | 0.0298 |
| CTTAAGTC | -0.136 |
| CCACGGTC | -0.16 |

Repeated from above (block 3):
| Sequence | E-score |
| --- | --- |
| AAAAGCTT | 0.139 |
| AGGGCTTG | -0.126 |
| AACGTGTG | 0.0761 |
| ATCGACCG | -0.121 |
| ATAATTCG | 0.321 |
| TCTCATCA | 0.148 |
| ATCCCAGC | -0.195 |
